Results of several laboratories.
Each line is one published result; not all experiments were run side by side. “And” joins repeats or separate records; there may be more than shown. ± gives the spread as reported.
PEAK1: Inactive tyrosine-protein kinase PEAK1 (PEAK1, Homo sapiens, UniProt Q9H792)
Chain of UniProt Q9H792 (whole entry, looked up): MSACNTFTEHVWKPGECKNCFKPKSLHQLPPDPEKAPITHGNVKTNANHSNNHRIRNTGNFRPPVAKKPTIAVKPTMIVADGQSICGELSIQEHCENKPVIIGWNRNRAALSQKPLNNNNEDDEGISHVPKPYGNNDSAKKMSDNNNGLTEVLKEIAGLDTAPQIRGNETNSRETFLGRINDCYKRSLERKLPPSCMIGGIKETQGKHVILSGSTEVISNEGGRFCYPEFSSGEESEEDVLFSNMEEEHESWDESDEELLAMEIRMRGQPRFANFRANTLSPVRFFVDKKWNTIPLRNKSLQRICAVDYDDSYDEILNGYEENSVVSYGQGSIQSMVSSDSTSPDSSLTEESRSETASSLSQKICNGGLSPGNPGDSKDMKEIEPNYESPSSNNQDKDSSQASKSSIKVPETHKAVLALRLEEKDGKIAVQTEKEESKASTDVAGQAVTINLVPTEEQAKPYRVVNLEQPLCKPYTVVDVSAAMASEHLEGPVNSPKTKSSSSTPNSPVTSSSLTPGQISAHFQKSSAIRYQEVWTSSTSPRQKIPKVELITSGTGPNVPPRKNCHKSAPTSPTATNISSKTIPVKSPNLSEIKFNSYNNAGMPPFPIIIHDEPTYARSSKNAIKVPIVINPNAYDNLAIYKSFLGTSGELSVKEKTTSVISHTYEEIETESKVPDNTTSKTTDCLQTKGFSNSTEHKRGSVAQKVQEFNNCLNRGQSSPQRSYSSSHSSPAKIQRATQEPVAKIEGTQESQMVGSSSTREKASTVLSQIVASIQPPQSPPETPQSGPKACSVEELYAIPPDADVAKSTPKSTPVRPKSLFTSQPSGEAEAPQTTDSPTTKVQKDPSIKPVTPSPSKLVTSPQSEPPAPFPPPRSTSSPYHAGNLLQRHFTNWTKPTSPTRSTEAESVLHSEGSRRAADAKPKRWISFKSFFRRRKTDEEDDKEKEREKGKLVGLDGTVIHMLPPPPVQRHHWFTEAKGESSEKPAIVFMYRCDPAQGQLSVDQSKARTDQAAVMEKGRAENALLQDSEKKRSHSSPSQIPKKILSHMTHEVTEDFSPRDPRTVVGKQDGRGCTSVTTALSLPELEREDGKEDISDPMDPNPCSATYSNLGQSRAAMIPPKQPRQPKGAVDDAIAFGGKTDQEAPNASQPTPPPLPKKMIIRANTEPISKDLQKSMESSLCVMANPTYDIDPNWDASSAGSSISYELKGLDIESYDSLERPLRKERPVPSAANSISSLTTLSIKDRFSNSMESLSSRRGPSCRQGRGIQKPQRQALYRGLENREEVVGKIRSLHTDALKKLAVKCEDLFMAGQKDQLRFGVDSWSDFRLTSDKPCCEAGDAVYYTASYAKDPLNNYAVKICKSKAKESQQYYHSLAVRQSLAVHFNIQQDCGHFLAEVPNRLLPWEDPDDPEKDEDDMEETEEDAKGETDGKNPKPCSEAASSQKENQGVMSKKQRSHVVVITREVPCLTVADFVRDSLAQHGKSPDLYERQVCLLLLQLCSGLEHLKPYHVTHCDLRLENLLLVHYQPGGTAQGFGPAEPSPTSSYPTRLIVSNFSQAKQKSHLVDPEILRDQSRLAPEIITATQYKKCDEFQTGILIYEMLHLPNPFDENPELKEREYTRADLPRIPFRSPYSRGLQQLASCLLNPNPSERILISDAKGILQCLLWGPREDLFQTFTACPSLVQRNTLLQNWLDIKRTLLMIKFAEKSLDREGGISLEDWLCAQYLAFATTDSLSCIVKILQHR
gag-pol integrase: Gag-Pol polyprotein, integrase (gag-pol, Human immunodeficiency virus type 1 group M subtype B, UniProt P04585)
HIPK4: Homeodomain-interacting protein kinase 4 (HIPK4, Homo sapiens, UniProt Q8NE63)
Chain of UniProt Q695T7 (whole entry, looked up): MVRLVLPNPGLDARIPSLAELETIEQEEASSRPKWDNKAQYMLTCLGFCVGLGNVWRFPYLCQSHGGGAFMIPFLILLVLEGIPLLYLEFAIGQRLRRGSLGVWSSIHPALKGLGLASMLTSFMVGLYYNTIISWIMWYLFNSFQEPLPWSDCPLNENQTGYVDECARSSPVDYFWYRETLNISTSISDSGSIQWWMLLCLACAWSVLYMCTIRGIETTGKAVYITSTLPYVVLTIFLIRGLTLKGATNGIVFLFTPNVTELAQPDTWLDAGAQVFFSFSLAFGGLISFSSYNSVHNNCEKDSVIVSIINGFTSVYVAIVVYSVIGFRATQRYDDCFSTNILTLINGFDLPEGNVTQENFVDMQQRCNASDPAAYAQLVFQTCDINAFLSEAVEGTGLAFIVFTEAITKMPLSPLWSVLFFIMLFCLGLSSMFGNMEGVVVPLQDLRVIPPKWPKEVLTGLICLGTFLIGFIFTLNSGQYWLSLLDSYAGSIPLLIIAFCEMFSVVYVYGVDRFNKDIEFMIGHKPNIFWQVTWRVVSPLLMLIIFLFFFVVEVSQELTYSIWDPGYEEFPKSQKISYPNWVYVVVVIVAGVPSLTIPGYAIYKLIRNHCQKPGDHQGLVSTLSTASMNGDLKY
Chain of UniProt Q92626 (whole entry, looked up): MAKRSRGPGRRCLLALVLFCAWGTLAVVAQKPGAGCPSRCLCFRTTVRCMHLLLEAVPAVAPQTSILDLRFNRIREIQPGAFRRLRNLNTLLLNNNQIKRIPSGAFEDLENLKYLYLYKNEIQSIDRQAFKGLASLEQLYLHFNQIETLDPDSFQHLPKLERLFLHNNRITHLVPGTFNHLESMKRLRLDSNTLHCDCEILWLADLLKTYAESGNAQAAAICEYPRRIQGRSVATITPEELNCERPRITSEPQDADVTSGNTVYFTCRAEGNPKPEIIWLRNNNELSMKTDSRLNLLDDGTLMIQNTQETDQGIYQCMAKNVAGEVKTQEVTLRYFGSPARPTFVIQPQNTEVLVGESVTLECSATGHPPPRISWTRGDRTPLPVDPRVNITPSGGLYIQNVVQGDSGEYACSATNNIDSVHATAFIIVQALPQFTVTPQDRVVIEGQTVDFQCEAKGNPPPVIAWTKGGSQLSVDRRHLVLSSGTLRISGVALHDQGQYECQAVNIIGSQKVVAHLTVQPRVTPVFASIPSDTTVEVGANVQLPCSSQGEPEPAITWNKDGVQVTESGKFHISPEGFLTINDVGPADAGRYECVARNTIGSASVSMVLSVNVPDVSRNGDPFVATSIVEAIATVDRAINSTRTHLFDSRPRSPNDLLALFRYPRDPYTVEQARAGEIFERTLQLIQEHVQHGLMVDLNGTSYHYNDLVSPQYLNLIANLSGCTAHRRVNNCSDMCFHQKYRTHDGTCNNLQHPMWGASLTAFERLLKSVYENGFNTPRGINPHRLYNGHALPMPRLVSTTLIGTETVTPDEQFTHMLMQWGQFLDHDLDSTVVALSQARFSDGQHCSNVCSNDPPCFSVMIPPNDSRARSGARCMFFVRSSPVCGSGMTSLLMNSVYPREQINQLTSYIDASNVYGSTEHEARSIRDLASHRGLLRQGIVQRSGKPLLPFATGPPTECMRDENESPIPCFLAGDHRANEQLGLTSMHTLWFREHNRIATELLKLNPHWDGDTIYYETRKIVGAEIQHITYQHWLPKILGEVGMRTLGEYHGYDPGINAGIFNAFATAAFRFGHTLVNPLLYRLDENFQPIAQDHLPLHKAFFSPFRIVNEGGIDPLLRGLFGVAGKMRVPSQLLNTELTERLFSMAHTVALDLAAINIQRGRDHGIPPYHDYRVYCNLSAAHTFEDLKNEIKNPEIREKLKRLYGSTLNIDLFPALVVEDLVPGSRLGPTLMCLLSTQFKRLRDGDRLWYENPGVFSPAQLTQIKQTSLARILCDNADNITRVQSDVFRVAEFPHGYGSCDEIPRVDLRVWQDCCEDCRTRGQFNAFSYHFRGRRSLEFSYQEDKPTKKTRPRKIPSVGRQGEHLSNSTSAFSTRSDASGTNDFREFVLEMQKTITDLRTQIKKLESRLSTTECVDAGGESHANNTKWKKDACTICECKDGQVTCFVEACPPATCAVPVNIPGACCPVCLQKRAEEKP
Chain of UniProt Q8NE63 (whole entry, looked up): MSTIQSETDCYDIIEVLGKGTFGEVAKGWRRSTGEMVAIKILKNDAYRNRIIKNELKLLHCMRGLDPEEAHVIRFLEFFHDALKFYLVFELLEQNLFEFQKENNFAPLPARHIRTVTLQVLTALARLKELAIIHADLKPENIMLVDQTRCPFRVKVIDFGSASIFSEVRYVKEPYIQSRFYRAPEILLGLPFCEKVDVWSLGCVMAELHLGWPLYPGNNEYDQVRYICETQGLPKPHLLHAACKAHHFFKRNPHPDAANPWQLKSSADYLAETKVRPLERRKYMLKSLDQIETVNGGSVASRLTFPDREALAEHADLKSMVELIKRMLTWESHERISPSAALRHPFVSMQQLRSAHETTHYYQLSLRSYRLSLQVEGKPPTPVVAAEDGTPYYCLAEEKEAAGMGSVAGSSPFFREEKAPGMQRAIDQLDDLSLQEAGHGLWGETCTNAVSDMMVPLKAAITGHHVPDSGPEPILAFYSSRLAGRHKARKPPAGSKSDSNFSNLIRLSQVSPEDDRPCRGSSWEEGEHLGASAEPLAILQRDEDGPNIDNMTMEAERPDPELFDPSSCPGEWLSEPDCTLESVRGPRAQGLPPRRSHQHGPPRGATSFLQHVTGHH
Chain of UniProt P08631 (whole entry, looked up): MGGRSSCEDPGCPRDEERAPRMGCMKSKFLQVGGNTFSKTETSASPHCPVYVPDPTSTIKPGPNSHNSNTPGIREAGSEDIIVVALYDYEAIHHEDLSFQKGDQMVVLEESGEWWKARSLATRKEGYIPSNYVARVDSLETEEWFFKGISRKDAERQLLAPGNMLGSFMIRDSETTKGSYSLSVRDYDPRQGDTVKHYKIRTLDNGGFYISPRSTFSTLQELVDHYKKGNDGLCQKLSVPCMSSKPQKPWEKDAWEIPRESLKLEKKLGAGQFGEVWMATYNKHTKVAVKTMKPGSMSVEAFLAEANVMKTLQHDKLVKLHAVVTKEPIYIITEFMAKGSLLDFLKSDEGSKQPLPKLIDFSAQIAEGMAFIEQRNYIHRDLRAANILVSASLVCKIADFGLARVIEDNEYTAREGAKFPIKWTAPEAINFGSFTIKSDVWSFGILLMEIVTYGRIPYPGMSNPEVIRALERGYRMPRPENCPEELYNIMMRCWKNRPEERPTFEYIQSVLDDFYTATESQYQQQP

With `NC/C(=C\F)COc1cccc(Cn2c(=S)[nH]c(=O)c3[nH]cnc32)c1` the remaining activity was 9.3% and 9.59% (Peroxidasin homolog (PXDN, Homo sapiens, UniProt Q92626); enzyme activity, inhibitor, Amplex UltraRed; 50 µM; reference: control).
The remaining activity of `C=CC(=O)N1CCC[C@@H](n2nc(-c3ccc(Oc4ccccc4)cc3)c3c(N)ncnc32)C1` is reported as 73.9 ± 0.3% (PEAK1; kinase activity, inhibitor, HotSpot radiometric; 100 nM, added: ATP 10 µM).
The remaining activity of `COc1cc(/C=C/C(=O)CC(=O)/C=C/c2ccc(O)c(OC)c2)ccc1O` is reported as 106% (PINK1; 1 µM; reference: DMSO).
`O=C(NC1CCC1)c1ccc2nc(-c3cccc(NS(=O)(=O)NCCN4CCCCC4)c3)cn2c1` gave a remaining activity of 98% (Serine/threonine-protein kinase D3 (PRKD3, Homo sapiens, UniProt O94806); enzyme activity; 10 µM).
For `COc1cc(-c2cncc3c2CN(C)Cc2cc(N4CCNCC4)ccc2-3)cc(OC)c1OC`, the remaining activity was 103% (TGF-beta receptor type-2 (TGFBR2, Homo sapiens, UniProt P37173); kinase activity; 1 µM, human enzyme, added: ATP 10 µM; reference: DMSO control).
`Cn1cc(-c2ccccc2)c2ccc(-c3ccsc3)nc21` gave a remaining activity of 58.4% (gag-pol integrase; strand transfer; HIV-1; 10 µM).
`Nc1ncnc2c1ncn2C1OC(CSCCNCc2cccc(-c3ccccc3)c2)C(O)C1O` (stereo not shown) gave a remaining activity of 54.7% (N6-adenosine-methyltransferase catalytic subunit, with METTL14 (METTL3, Homo sapiens, UniProt Q86U44); 10 µM).
`COc1cc(N2CCN(C)CC2)ccc1Nc1nc(N)n(C(=S)NCc2c(Cl)cccc2Cl)n1` gave a remaining activity of 0.6% (Ribosomal protein S6 kinase alpha-5, N-terminal kinase domain (RPS6KA5, Homo sapiens, UniProt O75582); enzyme activity; 10 µM; reference: control).
The remaining activity of `COc1cc(Nc2ncc3c(n2)-c2ccc(Cl)cc2C(c2c(F)cccc2OC)=NC3)ccc1C(=O)O` is reported as 100% (PHKG1; kinase activity; 1 µM).
The remaining activity of `CC(C)C(=O)Nc1n[nH]c2cc(-c3cccc(NS(=O)(=O)C4CC4)c3)ccc12` is reported as 102% (Phosphatidylinositol 4-phosphate 5-kinase type-1 gamma (PIP5K1C, Homo sapiens, UniProt O60331); ADP-Glo; 13.7 nM; reference: DMSO).
`O=C1NC(=O)/C(=C/c2ccc(-c3ccc(F)cc3O)o2)S1` gave a remaining activity of 65% (Mitogen-activated protein kinase 12 (MAPK12, Homo sapiens, UniProt P53778); enzyme activity; 10 µM).
With `O=C(O)c1ccc(Nc2ncc3c(n2)-c2ccc(Cl)cc2C(c2c(F)cccc2F)=NC3)cc1` the remaining activity was 95% (Fms(h); kinase activity; 1 µM).
For `COc1ccc(F)cc1C(=O)NCc1ccc(-c2nn([C@@H](C)C(F)(F)F)c(N)c2C(N)=O)cc1`, the remaining activity was 89% (PEAK1; kinase activity, inhibitor, HotSpot radiometric; 100 nM, added: ATP 10 µM).
`Cc1cc(Nc2cc(N3CCN(C)CC3)nc(Sc3ccc(NC(=O)C4CC4)cc3)n2)[nH]n1` gave a remaining activity of 100% (Tyrosine-protein kinase Fer (FER, Homo sapiens, UniProt P16591); kinase activity, KinaseProfiler; 0.03 µM, species human; reference: control).
`Cc1cccc(C)c1C(=O)OCC(=O)[C@H](CCCCN)NC(=O)[C@H](CCCNC(=N)N)NC(=O)OCc1ccccc1` gave a remaining activity of 100% (Procathepsin L (Mus musculus, UniProt P06797); inhibitor; 1 µM, added: AMC fluorogenic substrate; reference: untreated).
The remaining activity of `COc1ccc(-c2cn(C)c3nc(Cl)ccc23)cc1` is reported as 44% (gag-pol integrase; strand transfer; HIV-1; 10 µM).
The remaining activity of `COc1cc(F)ccc1-c1ncnc(Nc2cccc(C[S@](C)(=N)=O)c2)n1` is reported as 102% (SRSF protein kinase 2 (SRPK2, Homo sapiens, UniProt P78362); kinase activity; 10 µM, added: 10 µM ATP).
`Cn1cc(-c2cc(C(F)(F)F)cc(C(F)(F)F)c2)c2ccc(Cl)nc21` has a remaining activity of 51.7% (gag-pol integrase; strand transfer; HIV-1; 10 µM).
The remaining activity of `Cc1cc(NC(=O)c2cccc(NC(=O)/C=C/CN(C)C)c2)ccc1Nc1nccc(-c2cccnc2)n1` is reported as 0.575 (Mitogen-activated protein kinase 8 (MAPK8, Homo sapiens, UniProt P45983); enzyme activity, inhibitor; 0.5487 µM, 6 h, unit not given, added: GSH 10 mM pre-incubation; reference: vehicle).
`C=CC(=O)N1CCC[C@@H](n2nc(-c3ccc(Oc4ccccc4)cc3)c3c(N)ncnc32)C1` has a remaining activity of 50.1% (Tyrosine-protein kinase HCK (HCK, Homo sapiens, UniProt P08631); 10 µM).
For `Cn1cc(-c2ccccc2)c2ccc(Cl)nc21`, the remaining activity was 85.6% (gag-pol integrase; strand transfer; HIV-1; 10 µM).
For `COc1cc(N2CCN(C)CC2)ccc1Nc1nc(N)n(C(=O)NCc2c(Cl)cccc2Cl)n1`, the remaining activity was 8.1% (HIPK4; enzyme activity; 10 µM; reference: control).
`Cc1cc(Cl)cc(C)c1OCC(=O)NC(C)C` gave a remaining activity of 0.921 and 0.951 and 0.889 and 0.84 and 0.91 (Sodium-dependent neutral amino acid transporter B(0)AT1 (SLC6A19, Homo sapiens, UniProt Q695T7); FLIPR membrane potential; CHO-BC; 30 µM, unit not given; reference: uninhibited).
With `CNc1ncc2c(/C=C/C(=O)N3CCC(OC)CC3)nn(Cc3cccc(C(F)(F)F)c3)c2n1` the remaining activity was 98% (Dual specificity protein kinase CLK4 (CLK4, Homo sapiens, UniProt Q9HAZ1); kinase activity, inhibitor; 1 µM; reference: untreated control).
`CC(C)Oc1cc(N2CCN(C)CC2)ccc1Nc1nc(N)n(C(=O)NCc2ccccc2S(=O)(=O)C(C)C)n1` has a remaining activity of 34% (HIPK4; enzyme activity; 10 µM; reference: control).

A few entries again:
For `Cn1cc(-c2ccccc2)c2ccc(Cl)nc21`, the remaining activity was 85.6% (gag-pol integrase; strand transfer; HIV-1; 10 µM).
With `NC/C(=C\F)COc1cccc(Cn2c(=S)[nH]c(=O)c3[nH]cnc32)c1` the remaining activity was 9.3% and 9.59% (Peroxidasin homolog (PXDN, Homo sapiens, UniProt Q92626); enzyme activity, inhibitor, Amplex UltraRed; 50 µM; reference: control).
`Cc1cccc(C)c1C(=O)OCC(=O)[C@H](CCCCN)NC(=O)[C@H](CCCNC(=N)N)NC(=O)OCc1ccccc1` gave a remaining activity of 100% (Procathepsin L (Mus musculus, UniProt P06797); inhibitor; 1 µM, added: AMC fluorogenic substrate; reference: untreated).
